Results collected from several papers.
Every numbered part comes from another study and shows a few of its results, in no order.

Study 1 — method: RNAcompete; form: RNA; sample: in vitro; tested at: 20 nM; notes: 7-mer, probes averaged, single round; baseline: mean of 7-mers; reading: higher = stronger binding
Target: PABPC1L2, full length, GST fusion (mouse, UniProt A0ABA7IW68)
Residues (chain): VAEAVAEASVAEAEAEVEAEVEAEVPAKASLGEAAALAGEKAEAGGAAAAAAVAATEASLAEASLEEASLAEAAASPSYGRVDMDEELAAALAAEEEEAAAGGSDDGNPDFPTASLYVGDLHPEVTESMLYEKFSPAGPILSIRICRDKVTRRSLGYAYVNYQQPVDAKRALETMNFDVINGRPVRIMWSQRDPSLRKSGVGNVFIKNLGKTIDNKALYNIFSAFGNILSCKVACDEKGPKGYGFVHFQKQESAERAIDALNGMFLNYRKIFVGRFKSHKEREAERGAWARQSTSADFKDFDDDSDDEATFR
Strand	7-mer Z-score
CGACCGU	-0.168
AGGGCGC	0.265
UUCCGCA	-0.293
AGGUCGU	-0.347
UCUUCUC	-0.414
UAUUCAG	-0.244
UAGCCCA	-0.0536
CUACUGG	-0.258

Study 2 — Substance: NPM1 (Homo sapiens, UniProt P06748); method: cross-linking MS; sample: cell fractions; added: DSSO
partner	cross-linked residues
VIM (Homo sapiens, UniProt P08670)	K141 to K120
ANK3 (Homo sapiens, UniProt Q12955)	K250 to T2038
DPY19L3 (Homo sapiens, UniProt Q6ZPD9)	S254 to T106
KRT4 (Homo sapiens, UniProt P19013)	K250 to K214
WDR87 (Homo sapiens, UniProt Q6ZQQ6)	K223 to K1534

Study 3 — method: aptamer microarray, sandwich; form: DNA with 2'F-ANA; sample: in vitro; tested at: 200 nM; added: Cy3 exosite-II aptamer, 400 nM; reading: higher = stronger binding; strand: GGTTGGTGTGGTTGG
Target: Prothrombin, mature alpha-thrombin (F2, Homo sapiens, UniProt P00734)
Notes: whole 15-mer aptamer, many near background
Modification	mean fluorescence intensity [a.u.]
2'F-ANA at 2 6 8 9 11 12 13	433
2'F-ANA at 1 4 5 8 9 10 11 12	54
2'F-ANA at 7 8 12 13 14	308
2'F-ANA at 1 2 5 6 9 11 12 13 15	67.4
2'F-ANA at 2 3 7 8 11 13 15	680
2'F-ANA at 1 4 6 7 9 10 12 13 14 15	90.3
2'F-ANA at 1 2 3 4 5 7 8 9 10 11 14 15	48.1
2'F-ANA at 1 3 5 6 8 11	55.1

Other studies, line by line
Molecule	target	observed	form	tested at	measurement	value
ETIGLVRAL	HLA class I histocompatibility antigen, A alpha chain, allele A*80:01 (Homo sapiens, UniProt P04439)	peptide-MHC binding	peptide	concentration not given	binding	inactive

A few entries again (study 1):
Strand	7-mer Z-score
UUCCGCA	-0.293
UAUUCAG	-0.244
AGGGCGC	0.265
